Experimental data of several laboratories.
Lines come from different studies, so protocols differ. Numbers after ± are the reported error.
Kir3.1/Kir3.4: Kir3.1/Kir3.4 (Homo sapiens, UniProt P48544+P48549)
Adenylate kinase 2, mitochondrial: Adenylate kinase 2, mitochondrial (Homo sapiens, UniProt P54819)
CLPP: ATP-dependent Clp protease proteolytic subunit, mitochondrial (CLPP, Homo sapiens, UniProt Q16740)

The EC50 of `O=C(COc1cc(Cl)ccc1Cl)Nc1cc(C2CC2)nn1C1CCC(F)(F)CC1` is reported as 734 nM (Kir3.1/Kir3.4; activator, thallium flux; HEK293).
`COc1cc(Nc2ncc3c(n2)-c2ccc(Cl)cc2C(c2c(F)cccc2OC)=NC3)ccc1C(=O)O` has an EC50 of 215 nM (Adenylate kinase 2, mitochondrial; binding, kinobead competition; MV4-11 cell lysate).
The EC50 of `C[C@@H]1CC2=C(CN1Cc1cccc(C#N)c1)C(=O)N(Cc1cccc3ccccc13)C1=NCCN12` is reported as 104 ± 1.3 nM (CLPP; peptidase activity, activator; together with: Ac-WLA-AMC).
`CCc1cc(NC(=O)COc2ccc(Cl)cc2Cl)n(CC(F)(F)F)n1` gave an EC50 of 1000 nM (Kir3.1/Kir3.4; activator, thallium flux; HEK293).
With `C[C@@H]1CC2=C(CN1Cc1cccc(C#N)c1)C(=O)N(Cc1ccc(F)c(C(F)(F)F)c1)C1=NCCN12` the EC50 was 59.9 ± 0.9 nM (CLPP; peptidase activity, activator; together with: Ac-WLA-AMC).
With `CCc1cnc(C)c(C)n1` the EC50 was 355000 ± 26700 nM (uncharacterized protein (Mus musculus, UniProt A0A140T8K4); cAMP, agonist; HEK293 transfected with uncharacterized protein).
For `CC[C@@H](C)[C@@H](NC(=O)[C@@H](C)NC(=O)[C@@H](CCCNC(=N)N)NC(=O)[C@@H](Cc1c[nH]c2ccccc12)NC(=O)[C@@H](CCC(N)=O)NC(=O)[C@H](N)C(C)C)C(=O)N[C@H](CCCNC(=N)N)C(=O)N[C@@H](C(=O)N[C@H](CCCNC(=N)N)C(=O)N[C@H](CCCCN)C(=O)N[C@@H](C(=O)N[C@H](CCCNC(=N)N)C(N)=O)[C@H](C)CC)C(C)C`, the EC50 was 1330 nM (Mrgprb2 (Mus musculus, UniProt Q3KNA1); mast cell degranulation, agonist, measured: β-hexosaminidase release; peritoneal mast cells, wild-type mice).
The EC50 of `NCCCC(=O)O` is reported as 800000 nM (Solute carrier family 22 member 15 (SLC22A15, Homo sapiens, UniProt Q8IZD6); creatine efflux, activator, LC-MS/MS; human cells, HBSS; 30 min, 37 °C, together with: 1 mM and 10 mM creatine, butyrate, sodium).
For `CC[C@H](C)[C@H](NC(=O)[C@@H]1CCCN1C(=O)CNC(=O)[C@H](Cc1ccccc1)NC(=O)[C@H](CC(N)=O)NC(=O)[C@H](CC(N)=O)NC(=O)[C@H](CO)NC(=O)[C@H](CO)NC(=O)[C@H](Cc1c[nH]cn1)NC(=O)[C@@H](NC(=O)[C@H](CC(C)C)NC(=O)[C@H](Cc1ccccc1)NC(=O)[C@H](CC(N)=O)NC(=O)[C@H](C)NC(=O)[C@H](CC(C)C)NC(=O)[C@H](CCCNC(=N)N)NC(=O)[C@H](CCC(N)=O)NC(=O)[C@@H](NC(=O)[C@H](C)NC(=O)[C@@H]1CSSC[C@H](NC(=O)[C@@H](N)CCCCN)C(=O)N[C@@H](CC(N)=O)C(=O)N[C@@H]([C@@H](C)O)C(=O)N[C@@H](C)C(=O)N[C@@H]([C@@H](C)O)C(=O)N1)[C@@H](C)O)C(C)C)C(=O)N[C@@H](CC(C)C)C(=O)N1CCC[C@H]1C(=O)N1CCC[C@H]1C(=O)N[C@H](C(=O)N[C@@H](CC(N)=O)C(=O)N[C@H](C(=O)NCC(=O)N[C@@H](CO)C(=O)N[C@@H](CC(N)=O)C(=O)N[C@H](C(=O)N[C@@H](Cc1ccc(O)cc1)C(N)=O)[C@@H](C)O)C(C)C)[C@@H](C)O`, the EC50 was 0.0025 nM (Calcr/Ramp3, CT(a) isoform (Mus musculus, UniProt Q60755+Q9WUP1); cAMP accumulation, agonist, cAMP HTRF; BHK, transiently transfected; without human serum albumin).
`CCc1cc(NC(=O)COc2cccc(Cl)c2Cl)n(C2CCOCC2)n1` has an EC50 of 490 nM (Kir3.1/Kir3.4; activator, thallium flux; HEK293).
`O=CC[C@H](O)[C@H](O)CO`: “log2 fold change” -0.474 (binding, MIDAS equilibrium dialysis LC-MS; A2AR-BRIL thermostabilized; concentration not given; relative to: no-protein control).
With `Cc1ccn(-c2nc(NC3CCC(F)(F)CC3)cc(N3CCOCC3)n2)n1` the EC50 was 5100 ± 1000 nM (Calm1/Kcnn2 (Rattus norvegicus, UniProt P0DP29+P70604); activator, inside-out patch clamp; rat channel).
`C/C=C/C(=O)SCCNC(=O)CCNC(=O)[C@H](O)C(C)(C)COP(=O)(O)OP(=O)(O)OC[C@H]1O[C@@H](n2cnc3c(N)ncnc32)[C@H](O)[C@@H]1OP(=O)(O)O`: “log2 fold change” -0.888 (binding, MIDAS equilibrium dialysis LC-MS; A2AR-BRIL thermostabilized; concentration not given; relative to: no-protein control).
With `O=C(COc1ccc(C(F)(F)F)cc1C(F)(F)F)Nc1cc(C2CC2)nn1C1CCOCC1` the EC50 was 897 nM (Kir3.1/Kir3.4; activator, thallium flux; HEK293).
The EC50 of `COc1ccc(Br)c(CNc2cccnc2)c1` is reported as 5.89 nM (Melatonin receptor type 1B (Mtnr1b, Mus musculus, UniProt Q8CIQ6); cAMP accumulation, agonist, GloSensor cAMP; HEK cells transiently transfected; together with: isoproterenol).
`COc1cc(Nc2ncc3c(n2)-c2ccc(Cl)cc2C(c2c(F)cccc2OC)=NC3)ccc1C(=O)NCCOCCOCCNC(=O)COc1cccc2c1C(=O)N(C1CCC(=O)NC1=O)C2=O` (centres unmarked) has an EC50 of over 30000 nM (Adenylate kinase 2, mitochondrial; binding, kinobead competition; MV4-11 cell lysate).
The EC50 of `O=C(COc1ccc(C(F)(F)F)cc1C(F)(F)F)Nc1cc(C2CC2)nn1CC(F)(F)F` is reported as 2150 nM (Kir3.1/Kir3.4; activator, thallium flux; HEK293).

For quick reference, copied from above:
`COc1cc(Nc2ncc3c(n2)-c2ccc(Cl)cc2C(c2c(F)cccc2OC)=NC3)ccc1C(=O)O` has an EC50 of 215 nM (Adenylate kinase 2, mitochondrial; binding, kinobead competition; MV4-11 cell lysate).
The EC50 of `COc1ccc(Br)c(CNc2cccnc2)c1` is reported as 5.89 nM (Melatonin receptor type 1B (Mtnr1b, Mus musculus, UniProt Q8CIQ6); cAMP accumulation, agonist, GloSensor cAMP; HEK cells transiently transfected; together with: isoproterenol).
